Experimental data gathered from unrelated publications.
Protocols differ between the studies behind these lines. Numbers after ± are the reported error.
Sequence of UniProt P41146 (whole entry, looked up): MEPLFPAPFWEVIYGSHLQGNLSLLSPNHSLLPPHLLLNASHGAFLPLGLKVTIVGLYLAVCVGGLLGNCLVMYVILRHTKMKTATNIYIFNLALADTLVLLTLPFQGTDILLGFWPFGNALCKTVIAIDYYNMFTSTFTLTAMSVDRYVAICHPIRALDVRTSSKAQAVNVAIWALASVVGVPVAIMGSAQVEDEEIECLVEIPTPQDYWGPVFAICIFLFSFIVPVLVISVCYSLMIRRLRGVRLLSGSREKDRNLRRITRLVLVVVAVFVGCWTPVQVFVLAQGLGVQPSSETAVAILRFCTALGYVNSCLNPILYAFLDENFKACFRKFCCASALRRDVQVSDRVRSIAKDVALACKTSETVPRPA

Structure (SMILES) | tested on | assay | system | conditions | scale | quantity | result
CCCCCCCCCCCCCCCC(=O)N[C@@H](CCC(=O)NCCOCCOCCC(=O)NCCOCCOCCC(=O)NCCCC[C@H](NC(=O)[C@H](CC(=O)O)NC(=O)[C@H](CC(C)C)NC(=O)[C@H](Cc1ccc(O)cc1)NC(=O)[C@H](CCCCN)NC(=O)[C@H](CO)NC(=O)[C@H](Cc1ccc(O)cc1)NC(=O)[C@H](CC(=O)O)NC(=O)[C@H](CO)NC(=O)[C@@H](NC(=O)[C@H](Cc1ccccc1)NC(=O)[C@@H](NC(=O)CNC(=O)[C@H](CCC(N)=O)NC(=O)[C@@H](CO)NC(=O)[C@@H](N)Cc1c[nH]cn1)[C@@H](C)O)[C@@H](C)O)C(=O)N[C@@H](CCCNC(=N)N)C(=O)N[C@@H](CCCNC(=N)N)C(=O)N[C@@H](C)C(=O)N[C@@H](CCC(N)=O)C(=O)N[C@@H](CC(=O)O)C(=O)N[C@@H](Cc1ccccc1)C(=O)N[C@H](C(=O)N[C@@H](CCC(N)=O)C(=O)N[C@@H](Cc1c[nH]c2ccccc12)C(=O)N[C@@H](CC(C)C)C(=O)N[C@@H](CC(C)C)C(=O)N[C@@H](CC(N)=O)C(=O)N[C@H](C(=O)NCC(=O)NCC(=O)N1CCC[C@H]1C(=O)N[C@@H](CO)C(=O)N[C@@H](CO)C(=O)NCC(=O)N[C@@H](C)C(=O)N1CCC[C@H]1C(=O)N1CCC[C@H]1C(=O)N1CCC[C@H]1C(=O)N[C@@H](CO)C(N)=O)[C@@H](C)O)C(C)C)C(=O)O |  | refers to: CK | Sprague-Dawley rat, female | subcutaneous, 100 µg/kg once daily, 14 days |  | serum enzyme activity | 752 ± 440 U/L
Cc1oc2nc1C(=O)N[C@](C)(C(=O)O)c1nc(c(C)o1)C(=O)N[C@](C)(C(=O)O)c1nc(c(C)o1)C(=O)N[C@]2(C)C(=O)O | SARS-CoV-2 |  | Vero E6, NRC-03-nhCoV |  | relative to: CC50 over IC50 | selectivity index | 39.1
CCc1ccccc1NC(=S)N/N=C/c1ccc(O)cc1O | MCF7 |  |  | 100 µM |  | viability | > 85%
CC[C@H](C)[C@H](NC(=O)[C@H](CCCN)NC(=O)[C@H](CC(=O)O)NC(=O)[C@H](CC(C)C)NC(=O)C(C)(CC(C)C)NC(=O)[C@@H](NC(=O)[C@H](CO)NC(=O)[C@H](Cc1ccc(O)cc1)NC(=O)[C@H](CC(=O)O)NC(=O)[C@H](CO)NC(=O)[C@@H](NC(=O)[C@H](Cc1ccccc1)NC(=O)[C@@H](NC(=O)CNC(=O)[C@H](CCC(=O)O)NC(=O)C(C)(C)NC(=O)[C@@H](N)Cc1ccc(O)cc1)[C@@H](C)O)[C@@H](C)CC)[C@@H](C)CC)C(=O)N[C@@H](Cc1c[nH]cn1)C(=O)N[C@@H](CCC(N)=O)C(=O)NC(C)(C)C(=O)N[C@@H](CC(=O)O)C(=O)N[C@@H](Cc1ccccc1)C(=O)N[C@H](C(=O)N[C@@H](CCC(=O)O)C(=O)N[C@@H](Cc1ccc(O)cc1)C(=O)N[C@@H](CCCCNC(=O)COCCOCCNC(=O)COCCOCCNC(=O)CC[C@H](NC(=O)CCCCCCCCCCCCCCCCCCC(=O)O)C(=O)O)C(=O)N[C@@H](CC(C)C)C(=O)N[C@@H](CCC(=O)O)C(=O)NCC(=O)NCC(=O)N1CCC[C@H]1C(=O)N[C@@H](CO)C(=O)N[C@@H](CO)C(=O)NCC(=O)N[C@@H](C)C(=O)N1CCC[C@H]1C(=O)N1CCC[C@H]1C(=O)N1CCC[C@H]1C(=O)N[C@@H](CO)C(N)=O)C(C)C (stereo partly drawn) |  |  | human, plasma | subcutaneous, 25 mg, single dose, healthy volunteers |  | AUC(0-inf) | 1280 µg·h/mL
Cc1cc(O)cc(C)c1C[C@H](N)C(=O)NCC(=O)NCC(=O)N[C@@H](Cc1ccccc1)C(=O)N[C@H](C(=O)NCC(=O)N[C@@H](C)C(=O)N[C@@H](CCCNC(=N)N)C(=O)N[C@@H](CCCCN)C(=O)N[C@@H](CO)C(=O)N[C@@H](C)C(=O)N[C@@H](CCCNC(=N)N)C(=O)N[C@@H](CCCCN)C(N)=O)[C@@H](C)O | Nociceptin receptor, with β-arrestin 2 (OPRL1, Homo sapiens, UniProt P41146) | β-arrestin 2 recruitment, agonist, BRET | HEK293 cells | 15 min, room temperature |  | EC50 | 7.08 nM
CC[C@H](C)[C@H](NC(=O)[C@H](CO)NC(=O)[C@H](Cc1ccc(O)cc1)NC(=O)[C@H](CC(=O)O)NC(=O)[C@H](CO)NC(=O)[C@@H](NC(=O)[C@H](Cc1ccccc1)NC(=O)[C@@H](NC(=O)CNC(=O)[C@H](CCC(=O)O)NC(=O)[C@@H](C)NC(=O)[C@@H](N)Cc1ccc(O)cc1)[C@@H](C)O)[C@@H](C)CC)C(=O)N[C@@H](C)C(=O)N[C@@H](CCSC)C(=O)N[C@@H](CC(=O)O)C(=O)N[C@@H](CCCCN)C(=O)N[C@H](C(=O)N[C@@H](Cc1c[nH]cn1)C(=O)N[C@@H](CCC(N)=O)C(=O)N[C@@H](CCC(N)=O)C(=O)N[C@@H](CC(=O)O)C(=O)N[C@@H](Cc1ccccc1)C(=O)N[C@H](C(=O)N[C@@H](CC(N)=O)C(=O)N[C@@H](Cc1c[nH]c2ccccc12)C(=O)N[C@@H](CC(C)C)C(=O)N[C@@H](CC(C)C)C(=O)N[C@@H](C)C(=O)N[C@@H](CCC(N)=O)C(=O)N[C@@H](CCCCN)C(=O)N1CCC[C@H]1C(=O)N[C@@H](CO)C(=O)N[C@@H](CO)C(=O)NCC(=O)N[C@@H](C)C(=O)N1CCC[C@H]1C(=O)N1CCC[C@H]1C(=O)N1CCC[C@H]1C(=O)N[C@@H](CO)C(N)=O)C(C)C)[C@@H](C)CC |  |  | HF-STZ diabetic mouse | continuous infusion, 100 nmol/kg/day, 4 weeks |  | triglycerides | 130 ± 21 mg/dL
CC[C@H](C)C(=O)N1CCC(NC(=O)Nc2ccc(OC(F)(F)F)c(F)c2)CC1 |  |  | healthy volunteers | oral, 2 mg single dose |  | subjects with COVID-19 TEAE | 0%
CC[C@H](C)[C@@H]([C@@H](CC(=O)N1CCC[C@H]1[C@H](OC)[C@@H](C)C(=O)N[C@H](C)[C@@H](O)c1ccccc1)OC)N(C)C(=O)[C@@H](NC(=O)[C@H](C(C)C)N(C)C(=O)OCc1ccc(NC(=O)[C@H](CCCNC(N)=O)NC(=O)[C@@H](NC(=O)CCCC(=O)NCCC(=O)N(C)CC(=O)N(C)CC(=O)N(C)CC(=O)N(C)CC(=O)N(C)CC(=O)N(C)CC(=O)N(C)CC(=O)N(C)CC(=O)N(C)CC(=O)N(C)CC(=O)N[C@H]2CSCCC(=O)N3CN4CN(C3)C(=O)CCSC[C@H](NC(=O)[C@@H](CC(=O)O)NC(=O)[C@H](Cc3cccc5ccccc35)NC(=O)[C@@H]3CCCN3C2=O)C(=O)N[C@@H](CCSC)C(=O)N[C@@H](CCCCNC(=N)N)C(=O)N[C@@H](CC(=O)O)C(=O)N[C@@H](Cc2c[nH]c3ccccc23)C(=O)N[C@@H](CO)C(=O)N[C@@H]([C@@H](C)O)C(=O)N2CCC[C@H]2C(=O)N2C[C@H](O)C[C@H]2C(=O)N[C@@H](Cc2c[nH]c3ccccc23)C(=O)N[C@H](C(N)=O)CSCCC4=O)C(C)C)cc1)C(C)C |  |  | human plasma | 2 µM, pH 7.4 |  | t_half | > 3470 min
CCCCCCCCCCCCCCCC(=O)N[C@@H](CCC(=O)NCCCC[C@H](NC(=O)[C@H](CC(=O)O)NC(=O)[C@H](CO)NC(=O)[C@@H](NC(=O)[C@H](Cc1ccccc1)NC(=O)[C@@H](NC(=O)CNC(=O)[C@H](CCC(N)=O)NC(=O)[C@H](C)NC(=O)[C@@H](Cc1ccc(O)cc1)NC(C)=O)[C@@H](C)O)[C@@H](C)O)C(=O)N[C@@H](CO)C(=O)N[C@@H](CCCCN)C(=O)N[C@@H](Cc1ccc(O)cc1)C(=O)N[C@@H](CC(C)C)C(=O)N[C@@H](CC(=O)O)C(=O)N[C@@H](CCC(=O)O)C(=O)N[C@@H](CCCNC(=N)N)C(=O)N[C@@H](C)C(=O)N[C@@H](C)C(=O)N[C@@H](CCC(N)=O)C(=O)N[C@@H](CC(=O)O)C(=O)N[C@@H](Cc1ccccc1)C(=O)N[C@H](C(=O)N[C@@H](CCC(N)=O)C(=O)N[C@@H](Cc1c[nH]c2ccccc12)C(=O)N[C@@H](CC(C)C)C(=O)N[C@@H](CC(C)C)C(=O)N[C@@H](CCC(=O)O)C(=O)NCC(=O)NCC(=O)N1CCC[C@H]1C(=O)N[C@@H](CO)C(=O)N[C@@H](CO)C(=O)NCC(=O)N[C@@H](C)C(=O)N1CCC[C@H]1C(=O)N1CCC[C@H]1C(=O)N1CCC[C@H]1C(=O)N[C@@H](CO)C(N)=O)C(C)C)C(=O)O |  |  | cynomolgus monkey, male, plasma | intravenous, 0.0031 mg/kg |  | Cmax | 92.3 to 93.8 ng/mL
C[C@H](Nc1ncnc(N)c1C#N)c1c(-c2ccccc2)[nH]c2c(Cl)cccc2c1=O |  |  | Sprague-Dawley rats | dose not given |  | lethal dose | 200 mg/kg
CC[C@@H](C)[C@@H](NC(=O)[C@@H](CCCCN)NC(=O)[C@@H](CCCCN)NC(=O)[C@@H](CC(C)C)NC(=O)[C@@H](Cc1c[nH]c2ccccc12)NC(=O)CN)C(=O)NCC(=O)N[C@H](CCCCN)C(=O)N[C@H](CCCCN)C(=O)N[C@@H](C(=O)N[C@H](CCC(=O)O)C(=O)N[C@H](CCCNC(=N)N)C(=O)N[C@@H](C(=O)NCC(=O)N[C@H](CCC(N)=O)C(=O)N[C@H](Cc1c[nH]cn1)C(=O)N[C@@H](C(=O)N[C@H](CCCNC(=N)N)C(=O)N[C@H](CC(=O)O)C(=O)N[C@H](C)C(=O)N[C@@H](C(=O)N[C@@H](C(=O)N[C@H](CCC(N)=O)C(=O)N[C@@H](C(=O)N[C@@H](C(=O)NCC(=O)N[C@@H](C(=O)N[C@H](C)C(=O)N[C@H](CCC(N)=O)C(=O)N[C@H](CCC(N)=O)C(=O)N[C@H](C)C(=O)N[C@H](C)C(=O)N[C@H](CC(N)=O)C(=O)N[C@@H](C(=O)N[C@H](C)C(=O)N[C@H](C)C(=O)N[C@@H](C(=O)N[C@H](CC(C)C)C(=O)N[C@H](CCCCN)C(N)=O)[C@H](C)O)C(C)C)C(C)C)[C@H](C)CC)[C@H](C)O)[C@H](C)CC)[C@H](C)O)[C@H](C)O)C(C)C)[C@H](C)CC |  |  | human erythrocytes |  |  | minimal haemolytic concentration | > 1020 mg/L
CC[C@H](C)[C@H](NC(=O)[C@H](CCCCN)NC(=O)[C@H](Cc1ccc(O)cc1)NC(=O)[C@H](CCC(N)=O)NC(=O)[C@H](Cc1c[nH]cn1)NC(=O)[C@@H](NC(=O)[C@H](Cc1ccccc1)NC(=O)[C@H](Cc1c[nH]cn1)NC(=O)[C@@H](NC(=O)[C@@H](NC(=O)CNC(=O)[C@H](CCCNC(=N)N)NC(=O)[C@H](Cc1c[nH]c2ccccc12)NC(=O)[C@H](CC(C)C)NC(=O)[C@H](CO)NC(=O)[C@H](CCC(=O)O)NC(=O)[C@H](CC(C)C)NC(=O)[C@H](CCC(=O)O)NC(=O)[C@H](CC(N)=O)NC(=O)[C@H](CC(C)C)NC(=O)[C@H](CC(=O)O)NC(=O)[C@H](CO)NC(=O)[C@H](CCC(=O)O)NC(=O)[C@@H](NC(=O)[C@H](CC(C)C)NC(=O)[C@H](CCC(N)=O)NC(=O)[C@H](CCC(=O)O)NC(=O)[C@H](CCC(=O)O)NC(=O)[C@H](CC(C)C)NC(=O)[C@@H]1CCCN1C(=O)[C@@H](N)Cc1ccccc1)[C@@H](C)O)[C@@H](C)O)[C@@H](C)O)C(C)C)C(=O)N[C@@H](CCSC)C(=O)N1CCC[C@H]1C(=O)N[C@@H](Cc1ccccc1)C(=O)N[C@@H](CCCNC(=N)N)C(=O)N[C@@H](CCCCN)C(=O)N[C@@H](CC(C)C)C(=O)N[C@H](C(=O)N[C@@H](Cc1ccccc1)C(=O)N[C@@H](CCCCN)C(=O)N[C@@H](CCCNC(=N)N)C(=O)N[C@@H](CCCNC(=N)N)C(=O)N[C@@H](CCCCN)C(=O)N[C@@H](CC(N)=O)C(N)=O)C(C)C | RAW264.7 | WST-8 |  | up to 25 µg/mL, 24 h | relative to: water | viability | no effect

A few entries again:
Structure (SMILES) | tested on | assay | system | conditions | scale | quantity | result
CCCCCCCCCCCCCCCC(=O)N[C@@H](CCC(=O)NCCCC[C@H](NC(=O)[C@H](CC(=O)O)NC(=O)[C@H](CO)NC(=O)[C@@H](NC(=O)[C@H](Cc1ccccc1)NC(=O)[C@@H](NC(=O)CNC(=O)[C@H](CCC(N)=O)NC(=O)[C@H](C)NC(=O)[C@@H](Cc1ccc(O)cc1)NC(C)=O)[C@@H](C)O)[C@@H](C)O)C(=O)N[C@@H](CO)C(=O)N[C@@H](CCCCN)C(=O)N[C@@H](Cc1ccc(O)cc1)C(=O)N[C@@H](CC(C)C)C(=O)N[C@@H](CC(=O)O)C(=O)N[C@@H](CCC(=O)O)C(=O)N[C@@H](CCCNC(=N)N)C(=O)N[C@@H](C)C(=O)N[C@@H](C)C(=O)N[C@@H](CCC(N)=O)C(=O)N[C@@H](CC(=O)O)C(=O)N[C@@H](Cc1ccccc1)C(=O)N[C@H](C(=O)N[C@@H](CCC(N)=O)C(=O)N[C@@H](Cc1c[nH]c2ccccc12)C(=O)N[C@@H](CC(C)C)C(=O)N[C@@H](CC(C)C)C(=O)N[C@@H](CCC(=O)O)C(=O)NCC(=O)NCC(=O)N1CCC[C@H]1C(=O)N[C@@H](CO)C(=O)N[C@@H](CO)C(=O)NCC(=O)N[C@@H](C)C(=O)N1CCC[C@H]1C(=O)N1CCC[C@H]1C(=O)N1CCC[C@H]1C(=O)N[C@@H](CO)C(N)=O)C(C)C)C(=O)O |  |  | cynomolgus monkey, male, plasma | intravenous, 0.0031 mg/kg |  | Cmax | 92.3 to 93.8 ng/mL
